# Measurements gathered from unrelated publications.
# Numbered parts are unrelated; each lists some results of a single study. Substitutions count along the parent as printed.

# Study 1 — target: CCNA2, cyclin fold, Cln2 fusion (human); method: yeast growth competition, sequencing; matrix: yeast; notes: strong parent motif; baseline: not given; direction: higher = stronger binding
# Starting sequence: CDKN1B docking peptide (human); PSACRNLFGPVDH
Variant,normalised enrichment score
C4V,2.65
S2E,1.9
N6T,1.69
V11E,3.37
R5H,0.143

# Study 2 — method: protein-binding microarray; molecule type: double-stranded DNA, one strand shown; matrix: in vitro; concentration: not given; direction: higher = stronger binding
# Target: Protein max, full length (MAX, Homo sapiens, UniProt P61244-2, residues 1-151)
# Notes: k-mer, scored over probes, only values ≥0.25
Oligonucleotide,E-score
GAGCGTGA,0.342
CACATGTC,0.478
ACAAGCAT,0.274
CATGCCCA,0.345
ACATGGCG,0.418
CAGCATGC,0.445

# Study 3 — method: DHFR PCA, deep sequencing; matrix: yeast; together with: (+)-ABA 0.0091 µM; baseline: wild-type fitted maximum; direction: higher = stronger binding
# Target: ABI1, truncated, D143A, DHFR fusion (Arabidopsis thaliana)
# Notes: methotrexate growth selection, single substitutions
# Starting sequence: PYL1, truncated, DHFR fusion (Arabidopsis thaliana); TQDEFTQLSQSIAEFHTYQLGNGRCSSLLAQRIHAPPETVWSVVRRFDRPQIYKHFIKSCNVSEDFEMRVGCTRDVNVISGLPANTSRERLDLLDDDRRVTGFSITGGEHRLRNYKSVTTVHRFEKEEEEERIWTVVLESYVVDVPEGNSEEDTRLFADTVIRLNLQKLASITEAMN
Variant,relative binding score
E4P,6.28%
N114Y,-0.96%
E125P,27%
V142G,-2.58%
R113C,7.91%

# Further values, each from its own experiment
Molecule,target,test,test system,setting,scale,measurement,result
"PhoQ, residues 284 288 289 292 302 303 GANMMA","PhoP, residues 12 14 15 18 19 VQGLL (Escherichia coli, UniProt P23836)","Sort-seq, measured: YFP reporter",E. coli,"PhoQ-PhoP variant library, together with: 10 µM Mg2+","baseline: high Mg2+ state, higher = stronger signaling",fold induction,3.15

# For quick reference, copied from above (study 3):
Variant,relative binding score
R113C,7.91%
N114Y,-0.96%
